Experimental data collected from several papers.
Protocols differ between the studies behind these lines. Numbers after ± are the reported error.
OPRM1: Mu-type opioid receptor (OPRM1, Homo sapiens, UniProt P35372)
Sequence of UniProt P35372 (whole entry, looked up): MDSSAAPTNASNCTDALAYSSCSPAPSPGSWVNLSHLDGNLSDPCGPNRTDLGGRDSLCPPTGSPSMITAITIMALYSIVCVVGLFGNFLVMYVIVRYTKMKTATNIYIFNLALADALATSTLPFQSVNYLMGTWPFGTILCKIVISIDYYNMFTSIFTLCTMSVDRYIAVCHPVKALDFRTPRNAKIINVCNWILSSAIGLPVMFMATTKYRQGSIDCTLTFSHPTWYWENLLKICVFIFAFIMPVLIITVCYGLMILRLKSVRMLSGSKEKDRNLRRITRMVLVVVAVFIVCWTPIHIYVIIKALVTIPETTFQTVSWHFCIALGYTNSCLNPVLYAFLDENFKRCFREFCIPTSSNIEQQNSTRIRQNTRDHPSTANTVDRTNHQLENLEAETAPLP

With CC(C)C[C@H](NC(=O)[C@H](CO[C@@H]1O[C@H](CO)[C@@H](O[C@@H]2O[C@H](CO)[C@H](O)[C@H](O)[C@H]2O)[C@H](O)[C@H]1O)NC(=O)[C@H](CCCCN)NC(=O)[C@H](CC(C)C)NC(=O)C(C)(C)NC(=O)[C@H](CCCCN)NC(=O)[C@H](CCC(=O)O)NC(=O)C(C)(C)NC(=O)[C@H](CC(C)C)NC(=O)[C@H](CC(N)=O)NC(=O)[C@@H]1CCCN1C(=O)[C@H](CC(C)C)NC(=O)[C@H](Cc1ccccc1)NC(=O)CNC(=O)[C@H](NC(=O)[C@@H](N)Cc1ccc(O)cc1)[C@H](C)O)C(N)=O the Ki was 0.021 ± 0.0009 µM (OPRM1; radioligand displacement; CHO membranes; 60 min, pH 7.5, 25 °C, with: 0.25 nM [3H]DAMGO).
Cc1oc2nc1C(=O)N[C@](C)(C(=O)O)c1nc(c(C)o1)C(=O)N[C@](C)(C(=O)O)c1nc(c(C)o1)C(=O)N[C@]2(C)C(=O)O gave an inhibition of 24% (SARS-CoV-2; viral adsorption; Vero E6, NRC-03-nhCoV; 10 µM).
With Cc1ccc(N2CC3CC(C2)N3)cc1C(=O)NC1(c2ccc3c4c(cccc24)C(=O)N3C)CC1 the inhibition was 0% (SARS-CoV-2; viral replication; Vero C1008, Omicron BA.5; 0.01715 µM).
With Cc1oc2nc1C(=O)N[C@](C)(C(=O)OC(C)C)c1nc(c(C)o1)C(=O)N[C@](C)(C(=O)OC(C)C)c1nc(c(C)o1)C(=O)N[C@]2(C)C(=O)OC(C)C the inhibition was 57% (SARS-CoV-2; virucidal activity; Vero E6, NRC-03-nhCoV; 20 µM).
O=P(O)(O)Oc1c2c(c(OP(=O)(O)O)c3c1C1CC3c3cc4c(cc31)C1CC4c3ccccc31)C1CC2c2cc3c(cc21)C1CC3c2ccccc21: inhibition “inhibited” (SARS-CoV-2; viral infection; BetaCoV/France/IDF0372/2020; concentration not given).
For Cc1ccc(N2CCN(C)CC2)cc1C(=O)NC1(c2ccc3c4c(cccc24)CC3)CC1, the inhibition was 0% (SARS-CoV-2; viral replication; Vero C1008, wild type; 0.01715 µM).
For C[C@@H]1O[C@@H](n2c3ccccc3c3c4c(c5c6ccccc6[nH]c5c32)CNC4=O)C[C@@H](N)[C@H]1O, the inhibition was 93.2% (SARS-CoV-2; viral replication, mNeonGreen reporter virus; 50 µM).
CCCCCCCCCCCCCCCC(=O)N[C@@H](CCC(=O)NCCOCCOCCC(=O)NCCOCCOCCC(=O)NCCCC[C@H](NC(=O)[C@H](CC(=O)O)NC(=O)[C@H](CC(C)C)NC(=O)[C@H](Cc1ccc(O)cc1)NC(=O)[C@H](CCCCN)NC(=O)[C@H](CO)NC(=O)[C@H](Cc1ccc(O)cc1)NC(=O)[C@H](CC(=O)O)NC(=O)[C@H](CO)NC(=O)[C@@H](NC(=O)[C@H](Cc1ccccc1)NC(=O)[C@@H](NC(=O)CNC(=O)[C@H](CCC(N)=O)NC(=O)[C@@H](CO)NC(=O)[C@@H](N)Cc1c[nH]cn1)[C@@H](C)O)[C@@H](C)O)C(=O)N[C@@H](CCCNC(=N)N)C(=O)N[C@@H](CCCNC(=N)N)C(=O)N[C@@H](C)C(=O)N[C@@H](CCC(N)=O)C(=O)N[C@@H](CC(=O)O)C(=O)N[C@@H](Cc1ccccc1)C(=O)N[C@H](C(=O)N[C@@H](CCC(N)=O)C(=O)N[C@@H](Cc1c[nH]c2ccccc12)C(=O)N[C@@H](CC(C)C)C(=O)N[C@@H](CC(C)C)C(=O)N[C@@H](CC(N)=O)C(=O)N[C@H](C(=O)NCC(=O)NCC(=O)N1CCC[C@H]1C(=O)N[C@@H](CO)C(=O)N[C@@H](CO)C(=O)NCC(=O)N[C@@H](C)C(=O)N1CCC[C@H]1C(=O)N1CCC[C@H]1C(=O)N1CCC[C@H]1C(=O)N[C@@H](CO)C(N)=O)[C@@H](C)O)C(C)C)C(=O)O gave a clearance of 0.897 mL/min/kg (rhesus monkey, plasma; intravenous, 15.3 µg/kg, single dose).
With CCOC(=O)c1c(CSc2ccccc2)n(C)c2cc(-c3cccnc3)c(O)c(CN3CCN(CCOCCO)CC3)c12 the inhibition was ~47% (SARS-CoV-2; Vero C1008, MEX-BC2/2020; concentration not given).
With Cc1ccc(N2CC3CC(C2)N3C)cc1C(=O)NC1(c2ccc3c4c(cccc24)C(=O)N3C)CC1 the inhibition was 0% (SARS-CoV-2; viral replication; Vero C1008, Omicron BA.5; 0.05144 µM, 72 h).
Cc1oc2nc1C(=O)N[C@](C)(C(=O)NCCc1ccccc1)c1nc(c(C)o1)C(=O)N[C@](C)(C(=O)NCCc1ccccc1)c1nc(c(C)o1)C(=O)N[C@]2(C)C(=O)NCCc1ccccc1 has an inhibition of 0% (SARS-CoV-2; viral adsorption; Vero E6, NRC-03-nhCoV; 2.5 µM).
CC(C)(C)NC(=O)[C@@H](c1cccnc1)N(C(=O)c1ccco1)c1ccc(C(C)(C)C)cc1 gave an inhibition of 1.52% (SARS-CoV-2; viral replication; Vero; 1 µM).
With CC(C)C[C@H](NC(=O)[C@H](CO)NC(=O)[C@H](CCCCN)NC(=O)[C@H](CC(C)C)NC(=O)C(C)(C)NC(=O)[C@H](CCCCN)NC(=O)[C@H](CCC(=O)O)NC(=O)C(C)(C)NC(=O)[C@H](CC(C)C)NC(=O)[C@H](CC(N)=O)NC(=O)[C@@H]1CCCN1C(=O)[C@H](CC(C)C)NC(=O)[C@H](Cc1ccccc1)NC(=O)CNC(=O)[C@H](NC(=O)[C@@H](N)Cc1ccc(O)cc1)[C@H](C)O)C(N)=O the Ki was 0.029 ± 0.0031 µM (OPRM1; radioligand displacement; CHO membranes; 60 min, pH 7.5, 25 °C, with: 0.25 nM [3H]DAMGO).
CC[C@H](C)[C@H](NC(=O)CNC(=O)[C@H](C)NC(=O)[C@H](CCC(=O)O)NC(=O)[C@@H]1CCCN1C(=O)[C@H](CC(=O)O)NC(=O)[C@H](C)NC(=O)[C@H](CCC(=O)O)NC(=O)[C@H](C)NC(=O)[C@H](CC(=O)O)NC(=O)[C@H](C)N)C(=O)NCC(=O)N[C@@H](C)C(=O)N[C@H](C(=O)N[C@@H](CC(C)C)C(=O)N[C@@H](CCCCN)C(=O)N[C@H](C(=O)N[C@@H](CC(C)C)C(=O)N[C@H](C(=O)N[C@H](C(=O)NCC(=O)N[C@@H](CC(C)C)C(=O)N1CCC[C@H]1C(=O)N[C@@H](C)C(=O)N[C@@H](CC(C)C)C(=O)N[C@H](C(=O)N[C@@H](CO)C(=O)N[C@@H](Cc1c[nH]c2ccccc12)C(=O)N[C@H](C(=O)N[C@@H](CCCCN)C(=O)N[C@@H](CCCNC(=N)N)C(=O)N[C@@H](CCCCN)C(=O)N[C@@H](CCCNC(=N)N)C(=O)N[C@@H](CCC(N)=O)C(=O)N[C@@H](CCC(N)=O)C(N)=O)[C@@H](C)CC)[C@@H](C)CC)[C@@H](C)O)[C@@H](C)O)C(C)C)C(C)C has an HD50 of 29.2 ± 1.8 µmol/L (human erythrocytes, washed; 1 h, 37 °C, 2% v/v RBC suspension).
The inhibition of Cc1ccc(N2CC(N3CCC(C)(O)CC3)C2)cc1C(=O)NC1(c2ccc3c4c(cccc24)CC3)CC1 is reported as 0% (SARS-CoV-2; viral replication; Vero C1008, XBB.1; 0.005716 µM).
For CC[C@H](C)[C@H](NC(=O)[C@H](C)NC(=O)[C@H](Cc1c[nH]cn1)NC(=O)[C@@H](NC(=O)[C@H](CC(C)C)NC(=O)[C@H](CCCNC(=N)N)NC(=O)[C@H](CCC(N)=O)NC(=O)[C@H](C)NC(=O)[C@H](C)NC(=O)[C@H](C)NC(=O)[C@@H](NC(=O)[C@H](C)NC(=O)[C@H](CCC(N)=O)NC(=O)[C@H](C)NC(=O)CNC(=O)[C@H](CCC(N)=O)NC(=O)[C@H](CC(C)C)NC(=O)[C@H](C)NC(=O)[C@H](CCCNC(=N)N)NC(=O)[C@H](CCC(N)=O)NC(=O)CNC(=O)[C@H](Cc1c[nH]c2ccccc12)NC(=O)[C@H](Cc1c[nH]cn1)NC(=O)[C@H](C)NC(=O)[C@H](CO)NC(=O)[C@H](C)NC(C)=O)C(C)C)C(C)C)C(=O)N[C@@H](C)C(=O)N[C@@H](CC(C)C)C(=O)N[C@@H](CCSC)C(=O)N[C@H](C(=O)N[C@@H](CCC(N)=O)C(=O)N[C@@H](Cc1ccccc1)C(=O)NCC(=O)N[C@@H](CCCNC(=N)N)C(N)=O)[C@@H](C)O, the Kd was 75 ± 11 µM (membrane partitioning, far-UV CD; POPC:POPG 8:2 SUV).
CC(C)CC(C(=O)N1CC2(CC1C#N)C(=O)Nc1ccccc12)N(C)C(=O)c1cc2c(F)cc(F)c(F)c2[nH]1 (centres unmarked) has an inhibition of 100% (SARS-CoV-2; viral replication, infectious virus; Vero E6; 0.1 µM).
